Results pooled from the literature.
Each line is one published result; not all experiments were run side by side. Converted amounts (≈) assume the structure as drawn.

`OC[C@H]1O[C@@H](n2ccc3c(SCc4ccc(F)cc4F)ncnc32)[C@H](O)[C@@H]1O` gave a survival of 17.9% (Toxoplasma gondii; [3H]uracil incorporation; human fibroblasts, RH wild type; 10 µM).
With `O=C(O)c1ccc2cc(-c3ccc(O)c(C45CC6CC(CC(C6)C4)C5)c3)ccc2c1` the maximum inhibition was 30.1% (human coronavirus OC43; virus-induced cell killing; MRC-5; screen).
With `Cc1ccc(CSc2ncnc3c2ccn3[C@@H]2O[C@H](CO)[C@@H](O)[C@H]2O)cc1` the survival was 1.7% (Toxoplasma gondii; [3H]uracil incorporation; human fibroblasts, RH wild type; 25 µM).
For `COc1ccc([C@@]23Oc4cc(OC)cc(OC)c4[C@@]24N=C(C)N[C@@]4(O)[C@H](C(=O)N(C)OC)[C@H]3c2ccccc2)cc1`, the EC50 was 1.2 nM (Hepatitis E virus; viral replication; HepG2 HEV-3 replicon, genotype 3 wild boar isolate; 48 h).
`COc1cc2ccc3oc([N+](=O)[O-])cc3c2cc1OC` has an MIC90 of > 32 µg/mL (Salmonella enterica; REMA).
`COc1cc2c3c(c1OC)-c1ccccc1C[C@H]3N(C)CC2` gave an EC90 of 21700 nM (Toxoplasma gondii; parasite growth; HFF, bradyzoite, glutamine-induced).
The maximum inhibition of `C=C(c1ccc(C(=O)O)cc1)c1cc2c(cc1C)C(C)(C)CCC2(C)C` is reported as 7.22% (human coronavirus OC43; virus-induced cell killing; MRC-5; screen).
`CN1C(=O)[C@@H](N2CCc3cn(Cc4ccccc4)nc3C2=O)COc2ccccc21` gave an inhibition of -1% (mouse hepatitis virus; viral replication; nanoluciferase reporter; 1 µM).
With `O=C(O)CSc1nnc(Br)n1-c1ccc(C2CC2)c2ccccc12` the maximum inhibition was 14.3% (human coronavirus OC43; virus-induced cell killing; MRC-5; screen).
`COc1c([N+](=O)[O-])oc2ccc3ccccc3c12` gave an MIC90 of > 32 µg/mL (Mycobacteroides abscessus; REMA; ATCC 19977).
For `CC[n+]1c(-c2ccccc2)c2cc(N)ccc2c2ccc(N)cc21`, the maximum inhibition was 63.2% (human coronavirus OC43; virus-induced cell killing; MRC-5; screen).
For `COc1ccc(S(=O)(=O)N(CCO)c2ccccc2CN(C)C/C=C/c2ccc(Cl)cc2)cc1`, the inhibition was 20% (mouse hepatitis virus; viral replication; nanoluciferase reporter; 1 µM).
`O=C1[C@H](CC[C@H](O)c2ccc(F)cc2)[C@@H](c2ccc(O)cc2)N1c1ccc(F)cc1` gave a maximum inhibition of 0.482% (human coronavirus OC43; virus-induced cell killing; MRC-5; maximum over 10 doses).
`OC[C@H]1O[C@@H](n2ccc3c(SCc4ccc(Cl)c(Cl)c4)ncnc32)[C@H](O)[C@@H]1O` gave a survival of 83.6% (Toxoplasma gondii; [3H]uracil incorporation; human fibroblasts, RH wild type; 5 µM).
`C/C=C(/C)C(=O)O[C@H]1C(C)=C2C([C@@H]1OC(=O)CCCCCCC)[C@@](C)(OC(C)=O)C[C@H](OC(=O)CCC)[C@@]1(O)[C@H]2OC(=O)[C@@]1(C)O` (stereo partly drawn) gave a maximal activity of 96% (Mus musculus; gene silencing, high-content imaging; LDR reporter GFP cells; retest run 2).
`CC(=O)N1CCN(c2ccc(OCC3COC(Cn4ccnc4)(c4ccc(Cl)cc4Cl)O3)cc2)CC1` (stereo not drawn) has an MIC of 64 µM (≈ 34 µg/mL) (Candida albicans; broth microdilution; 56452, RPMI 1640-MOPS; 48 h, 30 °C).
`CCCCCCCCCCCCCCCCCCO`: “HBV DNA level” “no effect” (hepatitis B virus; HepAD38; 25 µM, 48 h).
`C[C@H]1CCC/C=C/[C@@H]2C[C@H](O)C[C@H]2[C@H](O)/C=C/C(=O)O1` gave an EC50 of 64 nM (Toxoplasma gondii; parasite growth, luciferase reporter; HFF, tachyzoite; 72 h).
For `Cn1c(=O)ccc2ccc(F)c(CCNC[C@H]3CN(c4cnc5c(n4)NC(=O)CO5)C(=O)O3)c21`, the MIC50 was < 0.015 µg/mL (coagulase-negative Staphylococcus).
For `CS(=O)(=O)CCCn1c(Cn2c(=O)n(CC(F)(F)F)c3ccncc32)cc2cc(Cl)ccc21`, “LS mean viral load change” read -4.14 log10 copies/mL (respiratory syncytial virus; RT-qPCR; hospitalized infants 1-24 months, nasal swab; oral, 6, 4.5 or 3 mg/kg daily, day 7, mid dose by age cohort; reference: baseline).
For `COC(=O)N[C@H](C(=O)N1CCC[C@H]1c1ncc(-c2ccc(-c3ccc(-c4cnc([C@@H]5CCCN5C(=O)[C@@H](NC(=O)OC)C(C)C)[nH]4)cc3)cc2)[nH]1)C(C)C`, the combination index was 1.09 (Hepatitis C virus; replicon cells, genotype 1a; 90% effect level, with: NS3 inhibitor, ratio 2.5:1).
`Cc1cc(C)nc(NC(=S)N2CCN(Cc3ccc(C(F)(F)F)cc3)CC2)c1` has a maximum inhibition of 14% (human coronavirus OC43; virus-induced cell killing; MRC-5; screen).
The fold enrichment of `Nc1ncnc2c1ncn2[C@@H]1O[C@@H]2COP(=O)(O)O[C@H]3[C@@H](O)[C@H](n4cnc5c(=O)[nH]cnc54)O[C@@H]3COP(=O)(O)O[C@H]2[C@H]1O` is reported as 7.33 (West Nile virus; RNA sequencing, refers to: formation, elastic fibre, R-HSA-1566948; HFF-1 cells; concentration not given, downregulated pathway; reference: WNV-infected untreated cells).
The MIC90 of `CCc1c([N+](=O)[O-])oc2ccc3ccccc3c12` is reported as 1 µg/mL (≈ 4.15 µM) (Salmonella enterica; REMA).
The maximum inhibition of `CC[C@]1(O)C[C@H]2CN(CCc3c([nH]c4ccccc34)[C@@](C(=O)OC)(c3cc4c(cc3OC)N(C=O)[C@H]3[C@@](O)(C(=O)OC)[C@H](OC(C)=O)[C@]5(CC)C=CCN6CC[C@]43[C@@H]65)C2)C1` is reported as 0% (human coronavirus OC43; virus-induced cell killing; MRC-5; maximum over 10 doses).
`CN1CC[C@@]2(C)c3cc(OC(=O)Nc4ccccc4)ccc3N(C)[C@@H]12` gave an EC90 of 78800 nM (Toxoplasma gondii; parasite growth; HFF, bradyzoite, alkaline-induced).
`CCOC(=O)/C=C/[C@H](C[C@@H]1CCNC1=O)NC(=O)[C@@H](CC(=O)[C@@H](NC(=O)c1cc(C)on1)C(C)C)Cc1ccc(F)cc1` gave an IC50 of 9 nM (Rhinovirus C; viral replication, high-content imaging; HeLa-CDHR3 C529Y, RV-C15a-mGL; 3 dpi).
The inhibition of `COc1cc(Nc2nc(C)cc(-c3cnn4nc(OC)ccc34)n2)cc(C(F)(F)F)c1` is reported as 1% (mouse hepatitis virus; viral replication; nanoluciferase reporter; 1 µM).
`Cc1c2c(nn1C)CSCc1cc(n(C)n1)CSc1cc(c3ccccc3c1)OCCCc1c(C(=O)O)n(C)c3c-2c(Cl)ccc13` gave a fold change of 16.9 (Staphylococcus aureus; label-free quantitative proteomics, refers to: SAOUHSC_02629 protein; SA113; concentration not given; reference: untreated control).
`CC[C@H](C)[C@H](NC(=O)[C@H](C)NC(=O)[C@H](CCCCN)NC(=O)[C@H](CC(C)C)NC(=O)[C@H](C)NC(=O)[C@@H](NC(=O)[C@H](Cc1c[nH]cn1)NC(=O)[C@H](CC(C)C)NC(=O)[C@@H](NC(=O)[C@@H](NC(=O)[C@H](CCCCN)NC(=O)[C@H](C)NC(=O)[C@H](C)NC(=O)[C@H](CO)NC(=O)[C@H](CCCCN)NC(=O)[C@H](Cc1ccccc1)NC(=O)[C@@H](NC(=O)[C@H](CCCCN)NC(=O)[C@H](CC(C)C)NC(=O)[C@H](Cc1ccccc1)NC(=O)[C@H](CO)NC(=O)[C@H](CCCCN)NC(=O)[C@H](Cc1c[nH]c2ccccc12)NC(=O)[C@H](CCCCN)NC(C)=O)[C@@H](C)O)[C@@H](C)O)C(C)C)[C@@H](C)O)C(=O)N[C@@H](CO)C(=O)N[C@@H](CO)C(N)=O`: “MIC geometric mean” 2 µg/mL (≈ 0.682 µM) (Klebsiella pneumoniae; ATCC 1706).
The MIC90 of `C[C@H]1COc2c(N3CCN(C)CC3)c(F)cc3c(=O)c(C(=O)O)cn1c23` is reported as 16 µg/mL (≈ 44.3 µM) (Staphylococcus, coagulase-negative).
`CN1CCN(C(=O)C(C)(C)c2ccc(C(=O)Nc3cn4cc(-c5ccncc5)ccc4n3)cc2)CC1` has an inhibition of -4% (mouse hepatitis virus; viral replication; nanoluciferase reporter; 1 µM).
`N#CC(C#N)=NNc1ccc(OC(F)(F)F)cc1` has a maximum inhibition of 7.65% (human coronavirus OC43; virus-induced cell killing; MRC-5; screen).
For `COC(=O)[C@@H]1[C@@H](c2ccccc2)[C@]2(c3ccc(OC)cc3)Oc3cc(OC)cc(OC)c3[C@@]23N=C(C)N[C@@]13O`, the EC50 was 2.28 nM (Hepatitis E virus; viral replication; HepG2 HEV-3 replicon, genotype 3; 48 h).
With `C[C@@H]1C[C@@H]([C@H](O)CC2CC(=O)NC(=O)C2)C(=O)[C@@H](C)C1` the AC50 was 10000 nM (Mus musculus; gene silencing, high-content imaging; LDR reporter GFP cells; retest run 1).
`O=[N+]([O-])c1cc2c(ccc3c2ccc2cc([N+](=O)[O-])oc23)o1` gave an MIC90 of < 0.25 µg/mL (Salmonella enterica; REMA).

Excerpt of the above:
`COc1cc2ccc3oc([N+](=O)[O-])cc3c2cc1OC` has an MIC90 of > 32 µg/mL (Salmonella enterica; REMA).
`COc1cc2c3c(c1OC)-c1ccccc1C[C@H]3N(C)CC2` gave an EC90 of 21700 nM (Toxoplasma gondii; parasite growth; HFF, bradyzoite, glutamine-induced).
The maximum inhibition of `C=C(c1ccc(C(=O)O)cc1)c1cc2c(cc1C)C(C)(C)CCC2(C)C` is reported as 7.22% (human coronavirus OC43; virus-induced cell killing; MRC-5; screen).
`CN1C(=O)[C@@H](N2CCc3cn(Cc4ccccc4)nc3C2=O)COc2ccccc21` gave an inhibition of -1% (mouse hepatitis virus; viral replication; nanoluciferase reporter; 1 µM).
With `O=C(O)CSc1nnc(Br)n1-c1ccc(C2CC2)c2ccccc12` the maximum inhibition was 14.3% (human coronavirus OC43; virus-induced cell killing; MRC-5; screen).
`COc1c([N+](=O)[O-])oc2ccc3ccccc3c12` gave an MIC90 of > 32 µg/mL (Mycobacteroides abscessus; REMA; ATCC 19977).
